# Experimental data pooled from the literature.
# Each numbered part is a random draw from the data of one study; scales do not carry over between parts.

# Series 1
# Target: Histone acetyltransferase KAT6A, winged helix 1, GST fusion (KAT6A, Homo sapiens, UniProt Q92794, residues 1-85)
# Method: protein binding microarray
# Form: double-stranded DNA, one strand shown
# Sample: in vitro
# Tested at: not given
# Setting: 8-mer, flanks averaged, mean of 2 arrays, mostly near background
# Relative to: not given
# Reading: higher = stronger binding
# Residues (chain): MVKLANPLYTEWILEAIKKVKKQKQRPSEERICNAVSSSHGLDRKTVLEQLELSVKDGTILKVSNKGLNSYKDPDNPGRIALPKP
Oligonucleotide,E-score
ACAGCGAG,0.11
CGTCTGCA,0.00825
GGAAGTCA,0.0692
AATTGGCT,-0.26
CTATGCCC,-0.0356
AAAGAGAT,-0.129
GGCGGGGA,0.346
ATGCGAAA,-0.0496
CGTCTGAC,0.0924

# Series 2
# Target: Sal-like protein 4, full length isoform A (SALL4, Homo sapiens, UniProt Q9UJQ4, residues 1-1053)
# UniProt Q9UJQ4, sequence (whole entry, looked up): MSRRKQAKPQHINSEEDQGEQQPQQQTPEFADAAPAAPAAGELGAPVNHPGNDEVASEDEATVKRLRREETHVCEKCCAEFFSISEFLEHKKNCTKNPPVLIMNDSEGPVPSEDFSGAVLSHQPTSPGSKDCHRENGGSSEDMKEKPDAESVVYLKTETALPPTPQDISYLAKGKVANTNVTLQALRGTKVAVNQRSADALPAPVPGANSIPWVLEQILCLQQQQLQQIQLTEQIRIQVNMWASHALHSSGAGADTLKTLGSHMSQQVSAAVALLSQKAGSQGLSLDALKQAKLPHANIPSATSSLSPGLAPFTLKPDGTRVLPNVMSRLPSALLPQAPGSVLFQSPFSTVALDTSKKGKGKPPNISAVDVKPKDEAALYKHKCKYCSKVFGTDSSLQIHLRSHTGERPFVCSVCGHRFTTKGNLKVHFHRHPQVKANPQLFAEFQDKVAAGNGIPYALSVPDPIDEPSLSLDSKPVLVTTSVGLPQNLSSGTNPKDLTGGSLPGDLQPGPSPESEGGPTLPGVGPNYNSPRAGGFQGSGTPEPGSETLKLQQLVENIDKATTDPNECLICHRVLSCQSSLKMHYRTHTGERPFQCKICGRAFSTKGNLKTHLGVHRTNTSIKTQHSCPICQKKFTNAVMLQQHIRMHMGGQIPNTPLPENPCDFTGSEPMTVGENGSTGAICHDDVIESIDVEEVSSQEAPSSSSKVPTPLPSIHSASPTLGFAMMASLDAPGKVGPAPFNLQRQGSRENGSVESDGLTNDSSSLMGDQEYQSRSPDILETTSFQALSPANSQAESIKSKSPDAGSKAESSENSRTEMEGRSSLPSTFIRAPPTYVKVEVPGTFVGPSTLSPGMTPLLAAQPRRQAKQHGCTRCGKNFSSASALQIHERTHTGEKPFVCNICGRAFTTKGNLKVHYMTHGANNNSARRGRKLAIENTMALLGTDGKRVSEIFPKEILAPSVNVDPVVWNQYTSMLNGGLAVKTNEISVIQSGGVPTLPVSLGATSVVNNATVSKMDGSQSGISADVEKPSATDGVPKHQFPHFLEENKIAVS
# Method: universal PBM
# Form: double-stranded DNA, one strand shown
# Sample: in vitro
# Tested at: 600 nM
# Setting: 8-mer, flanks averaged, mean of replicates
# Reading: higher = stronger binding
Oligonucleotide,E-score
ATCAATCG,0.0778
CGCCGACG,-0.292
CCGGTGTC,-0.332
AGTGTCAC,-0.067
ATCAATTG,0.246

# Series 3
# Target: Interferon regulatory factor 5, full length, phosphomimetic (IRF5, Homo sapiens, UniProt Q13568-2, residues 1-514, K96S/S451D/S453D/S456D/S462D)
# Method: protein-binding microarray
# Form: double-stranded DNA, one strand shown
# Sample: in vitro
# Tested at: 250 nM
# Setting: 60-bp whole probe
# With: salmon DNA 0.4 mg/ml
# Relative to: random background probes
# Reading: higher = stronger binding
# Constant ends, left off below: GCCTAGCAC … GTCTTGATTCGCTTGACGCTGCTG
Oligonucleotide,log fluorescence [z-score]
GACGGTCTCGACACTGGGGACGTGCTA,-0.25
TTAGGTTTCCTTTTCCTTGAGTGCTAG,1.52
TCACACTTCCTTCTGCCACTGTGCTAG,0.403
GTGATGTGAGGGGAGAGGGAGTGCTAG,-0.329
ACTAATTTTCAATTCCTGAAGTGCTAG,1.6
GACGGACTGGTTTTCCTGACGTGCTAG,-0.388
TAGTTTTCATTTTCTGAATGTGTGCTA,4.16
TTAGGTATCCTACTGATTTAGTGCTAG,-0.0266
TTAGCACTGGGGACTGGGTTAGTGCTA,-0.348
GACGATTTCGGGTATCGAGCCGTGCTA,4.27
TTAGATATCGGGTATCGGTTAGTGCTA,6.26
TCATTTAGAAATTTCTTACTGTGCTAG,1.02

# Mixed results
Molecule,target,test,system,setting,scale,measurement,value
"PhoQ, residues 284 288 289 292 302 303 SSCLAV","PhoP, residues 12 14 15 18 19 STWGI (Escherichia coli, UniProt P23836)","Sort-seq, refers to: YFP reporter",E. coli,"PhoQ-PhoP variant library, with: 10 µM Mg2+","relative to: high Mg2+ state, higher = stronger signaling",fold induction,8.04

# A few entries again (series 3):
Oligonucleotide,log fluorescence [z-score]
TCACACTTCCTTCTGCCACTGTGCTAG,0.403
TAGTTTTCATTTTCTGAATGTGTGCTA,4.16
GACGGTCTCGACACTGGGGACGTGCTA,-0.25
ACTAATTTTCAATTCCTGAAGTGCTAG,1.6
